Measurements collected from several papers.
Compare with care: the assays were run in different laboratories.

COCc1nn(Cc2ccc(Cn3ccccc3=O)cc2)cc1C(=O)NCc1nccc(OC)c1F  solubility (FaSSIF; 4 h, pH 6.5): 110 µg/mL
CCn1cc(-c2nc(C)no2)c(=O)c2cc(F)c(N3CCC(C)CC3)cc21  solubility (shake flask; PBS; 2 h, pH 7.4, 25 °C): < 1.2 µM
CCCN(Cc1ccccc1OC)C(=O)c1cc2c(s1)CCCC2  solubility (aqueous buffer; 12 h, pH 7.4, 37 °C): 5390 µg/mL
Cc1cc(C)c(C#N)c(SCC(=O)c2ccc(F)cc2F)n1  solubility (aqueous buffer; pH 7.4, 25 °C): < 5 µM
O=c1[nH]cc(F)c(=O)[nH]1  solubility (shake flask; aqueous buffer; pH 6.8): 6830 µg/mL
Cc1cc(C)c(C#N)c(SCC(=O)c2ccsc2)n1  solubility (aqueous buffer; pH 7.4, 25 °C): < 5 µM
CCN(Cc1ccccc1OC)C(=O)c1cc(C)c(C)s1  solubility (aqueous buffer; 12 h, pH 7.4, 37 °C): 5920 µg/mL
CC(/C=C/C=C(\C)C(=O)O)=C\C=C\C=C(C)\C=C\C=C(/C)C(=O)O  solubility (shake flask; simulated intestinal fluid; 1 h, pH 6.8, 37 °C): 12 µg/mL
CCCN(Cc1ccccc1OC)C(=O)c1cc(C)c(C)s1  solubility (aqueous buffer; 12 h, pH 7.4, 37 °C): 501 µg/mL
COc1ccc(-c2oc3ccc(-c4ccc5c(c4)OCO5)nc3c2C#CC2(O)CCCCC2)cc1  solubility (aqueous buffer): < 1 µg/mL
C[C@H]1CN(c2n[nH]c3nc(N[C@H]4CC[C@H](NS(=O)(=O)CCC(F)(F)F)CC4)ncc23)CCO1  solubility (FaSSIF; 4 h, pH 6.5, 37 °C): 17 µg/mL
Cc1cc(C)c(C#N)c(SCC(=O)c2ccc(Cl)cc2Cl)n1  solubility (aqueous buffer; pH 7.4, 25 °C): < 5 µM
Cc1[nH]c(C(=O)Nc2ccc(C(=O)O)cc2N2CCC[C@H](N)C2)c(Cl)c1Cl.Cl  solubility (PBS; 24 h, pH 7.4, 25 °C): 24 µg/mL
COc1cc(Cc2cnc(N)nc2N)cc(OC)c1OC  solubility (shake flask; aqueous buffer; pH 6.8): 223 µg/mL
Cc1cc(C)c(C#N)c(SCC(=O)N2CCOCC2)n1  solubility (aqueous buffer; pH 7.4, 25 °C): 113 µM
Cc1[nH]c(C(=O)Nc2ccc(-c3n[nH]c(=O)o3)cc2N2CCC[C@H](N)C2)c(Cl)c1Cl.Cl  solubility (PBS; 24 h, pH 7.4, 25 °C): 31 µg/mL
CCOC(=O)c1cn(CC)c2cc(N3CCC(C)CC3)c(F)cc2c1=O  solubility (shake flask; PBS; 2 h, pH 7.4, 25 °C): 12 µM
CN(C)C(=O)c1cc2cnc(Nc3ccc(N4CCNCC4)cn3)nc2n1C1CCCC1  solubility (aqueous buffer; 24 h, pH 6.8, 37 °C): 800 µg/mL
C=C[C@@H]1C[C@]1(NC(=O)[C@@H]1C[C@@H](Oc2ncc(OC)c3ccc(Cl)cc23)CN1C(=O)[C@@H](NC(=O)OC(C)(C)C)C(C)(C)C)C(=O)NS(=O)(=O)C1CC1  solubility (aqueous buffer; pH 7.4): 160 µM
CCCN(Cc1ccccc1OC)C(=O)c1cc(F)cc(Br)c1  solubility (aqueous buffer; 12 h, pH 7.4, 37 °C): 787 µg/mL
Cc1cc(C)c(C#N)c(SCC(=O)c2ccc(Cl)cc2)n1  solubility (aqueous buffer; pH 7.4, 25 °C): < 5 µM
CCCN(Cc1ccccc1OC)C(=O)c1ccc(Br)c(Br)c1  solubility (aqueous buffer; 12 h, pH 7.4, 37 °C): 2590 µg/mL
CCc1ccc(C(=O)CSc2nc(C)cc(C)c2C#N)cc1  solubility (aqueous buffer; pH 7.4, 25 °C): < 5 µM
COC(=O)N[C@H](C(=O)N[C@@H](Cc1ccccc1)[C@@H](O)CN(Cc1ccc(-c2ccccn2)cc1)NC(=O)[C@@H](NC(=O)OC)C(C)(C)C)C(C)(C)C  solubility (aqueous buffer; pH 7.4): 2.3 µM

Repeated from above:
CN(C)C(=O)c1cc2cnc(Nc3ccc(N4CCNCC4)cn3)nc2n1C1CCCC1  solubility (aqueous buffer; 24 h, pH 6.8, 37 °C): 800 µg/mL
C=C[C@@H]1C[C@]1(NC(=O)[C@@H]1C[C@@H](Oc2ncc(OC)c3ccc(Cl)cc23)CN1C(=O)[C@@H](NC(=O)OC(C)(C)C)C(C)(C)C)C(=O)NS(=O)(=O)C1CC1  solubility (aqueous buffer; pH 7.4): 160 µM
